Published values of several laboratories.
Lines come from different studies, so protocols differ. ± gives the spread as reported.
Organism: Plasmodium falciparum

CC1C=CC=CC(C)C2C=CC3CC(C)(O)C(F)C(C)C3C2C(=O)C(Cl)(Cl)C(=O)C(C)C(=O)O1 (centres unmarked) — IC50 (parasite growth, ELISA; DD2; drug-resistant strain, blood stage): 328 nM
CC1CCC(C(C)(C)C(=O)Nc2ccc(Oc3ccccc3)cc2)CC1 (centres unmarked) — IC50 (parasite growth, SYBR Green; DD2; blood stage): 56 nM
CC1=C[C@@H](C)[C@H]2[C@@H]3C(=O)C(Cl)(Cl)C(=O)[C@H](C)C(=O)O[C@@H](C)/C=C/C=C\[C@@H](C)[C@@H]3C=C[C@@H]2C1 — IC50 (parasite growth, ELISA; DD2; drug-resistant strain, blood stage): 16 nM
COc1ccc(CCNC2=CC3=[N+](C)CCc4c[nH]c(c43)C2=O)cc1 — IC50 (parasite growth, SYBR Green; 3D7; blood stage): 22.6 nM
C[C@H]1[C@@H](OCc2cn(-c3cc4ccc(O)cc4oc3=O)nn2)O[C@@H]2O[C@@]3(C)CC[C@H]4[C@H](C)CC[C@@H]1[C@@]24OO3 — IC50 (3D7, supernatant of treated uninfected erythrocytes; 72 h, 500 nM preincubated 0.16 h): 1.2 ± 0.1 nM
COCCN(C)C(C)C(=O)NC(Cc1ccc(-c2ccccc2)cc1)B(O)O (centres unmarked) — IC50 (parasite growth; Dd2-B2 wild type; 72 h): 557 ± 23 nM
COc1cc2c3cc1Oc1cc(ccc1O)CC1c4c(cc(OC)c(O)c4Oc4ccc(cc4)CC3N(C)CC2)CCN1C (centres unmarked) — IC50 (parasite growth, stage-specific treatment; 12 h, early to late schizont stage): 5340 ± 330 nM
CC(=O)c1c(O)c(C)c(O)c2c1OC1=CC(=O)C(=C(C)NCCNc3ccnc4cc(Cl)ccc34)C(=O)C12C (centres unmarked) — IC50 (parasite growth, [3H]hypoxanthine incorporation; K1; erythrocytic stages): 305 nM
Nc1ncnc2c1c(-c1ccc(Oc3ccccc3)cc1)cn2C1CCCC1 — IC50 (growth, SYBR Green; FVO; 36 h): 28000 nM
Cc1ccc2c(c1)C1CC(C)(N2)c2c(C)nc3ccc(C)cc3c21 (centres unmarked) — IC50 (parasite growth, inhibitor, SYBR Green I; Cam3.1 R539T (MRA-1240)): 86 nM
COCCN(C)CC(=O)NC(Cc1ccc(-c2ccccc2)cc1)B(O)O (centres unmarked) — IC50 ([3H]-hypoxanthine incorporation; Dd2, DSM265-resistant): 143 ± 41 nM
CCCCCc1ccc(Cc2cc(/C=C/C(=O)OC)cc3cccnc23)cc1 — IC50 (parasite growth, inhibitor, SYBR Green I; Cam3.1 R539T (MRA-1240)): 10600 nM
C[C@H]1[C@@H](OCc2nnn(-c3cc4ccc(O)cc4oc3=O)c2CO[C@H]2O[C@@H]3O[C@@]4(C)CC[C@H]5[C@H](C)CC[C@@H]([C@H]2C)[C@@]35OO4)O[C@@H]2O[C@@]3(C)CC[C@H]4[C@H](C)CC[C@@H]1[C@@]24OO3 — IC50 (parasite growth; 3D7; 72 h, blood stage): 0.7 nM
C[OH+][Cu-2]12[O]C(c3cn(-c4ccccc4)nc3-c3ccc(C)cc3)=N[N+]1=C(C)c1c(cc(C)oc1=O)[O]2 (centres unmarked) — IC50 (parasite growth, SYBR Green I fluorescence; 3D7; 72 h): 8950 nM
CC1C=CC=CC(C)C2C=CC3CC(C)(O)C(O)C(C)C3C2C(=O)C(Cl)(Cl)C(=O)C(C)C(=O)O1 (centres unmarked) — IC50 (parasite growth, ELISA; DD2; drug-resistant strain, blood stage): > 2170 nM
Cc1ccc(S(=O)(=O)n2cc3c4c2C(=O)C(NCCc2ccc(O)cc2)=CC4=NCC3)cc1 — IC50 (parasite growth, SYBR Green; 3D7; blood stage): 233 nM
O[Si](CCCN1CCCCC1)(c1ccc(F)cc1)C1CCCCC1 (centres unmarked) — IC50 (parasite growth, SYBR Green; HB3; blood stage): 7 nM
CC1C=CC=CC(C)C2C=CC3CC(C)(O)C(Br)C(C)C3C2C(=O)C(Cl)(Cl)C(=O)C(C)C(=O)O1 (centres unmarked) — IC50 (parasite growth, ELISA; DD2; drug-resistant strain, blood stage): 64 nM
N[C@H]1C[C@@H](C(=O)O)CC1=C(F)F — IC50 (parasite growth, SYBR Green; D6; blood stage): > 10 µg/mL
C[C@H]1[C@H](OC(=O)CCC(=O)OCc2nnn(-c3cc4ccc(O)cc4oc3=O)c2COC(=O)CCC(=O)O[C@@H]2O[C@@H]3O[C@@]4(C)CC[C@H]5[C@H](C)CC[C@@H]([C@H]2C)[C@@]35OO4)O[C@@H]2O[C@@]3(C)CC[C@H]4[C@H](C)CC[C@@H]1[C@@]24OO3 — IC50 (3D7, supernatant of treated uninfected erythrocytes; 72 h, 500 nM preincubated 0.16 h): 3.8 ± 0.7 nM
COc1cc2c(c(OC)c1)C(C)=[N+](c1ccc(OC)c3c(OC)cc(C)cc13)[C@@H](C)C2 — IC50 (parasite growth, SYBR Green; W2; drug-resistant strain, blood stage): 1870 nM
COc1ccc2nc3cc(Cl)ccc3c(NCCNC(C)=C3C(=O)C=C4Oc5c(C(C)=O)c(O)c(C)c(O)c5C4(C)C3=O)c2c1 (centres unmarked) — IC50 (parasite growth, 3H-hypoxanthine incorporation; K1; asexual erythrocytic stages): 0.03 µg/mL
CC(F)(F)CCCNC[C@H](O)c1cc(Cl)cc2c1-c1ccc(Cl)cc1C2 — IC50 (parasite growth, SYBR Green; W2; 48 h, drug-resistant strain, blood stage): 2 nM
COc1ccc2cc1Oc1cc3c(cc1OC)CCN(C)C3Cc1ccc(cc1)Oc1c(O)c(OC)cc3c1C(C2)N(C)CC3 (centres unmarked) — IC50 (parasite growth, SYBR Green; blood stage): 410 nM
C[OH+][Cu-2]12[O]C(c3cn(-c4ccccc4)nc3-c3ccc(Cl)cc3)=N[N+]1=C(C)c1c(cc(C)oc1=O)[O]2 (centres unmarked) — IC50 (parasite growth, SYBR Green I fluorescence; 3D7; 72 h): 28200 nM
Cc1cc(N2CCC(C#N)(C3(C)CC3)C2=O)cc(C(=O)NCc2cc(F)cc(-c3cnn(C)c3)c2)n1 (racemic) — IC50 (parasite growth, [3H]hypoxanthine incorporation; Dd2 Pfcarl mutant): 20 nM
C[C@@H]1CC[C@H]2[C@@H](C)C(=O)O[C@@H]3O[C@@]4(C)CC[C@@H]1[C@]32OO4 — IC50 (parasite growth; 72 h, blood stage): 5.92 nM
O[C@]12C=C(c3nccc4c3[nH]c3ccccc34)[C@@H]3CCN(CCCC/C=C\CC1)C[C@@]31C[C@@H]3/C=C\CCCCN3[C@H]12 — IC50 (parasite LDH; D6, chloroquine-sensitive; 72 h): 0.0208 ± 0.00075 µg/mL
CN1CCCCC1C(=O)NC(Cc1ccc(-c2ccccc2)cc1)B(O)O (centres unmarked) — IC50 (ex vivo; Brazilian field isolates; range limit): 7 to 134 nM
